Results from different studies.
Numbered parts are unrelated; each lists some results of a single study. Values joined by “and” are separate records of one study, mostly repeats; a detail may differ.

Sample 1
SMILES: CN1C(=O)C(O)(C(=O)O)Oc2cc(F)ccc21 (stereo not shown)
Measurement: inhibition
Arabidopsis thaliana; root length; Col-0, seedlings; 50 µg/mL: 36.5%
Arabidopsis thaliana; hypocotyl length; Col-0; 25.0 µg/mL, 7 days, seed germination, dark: 24.4%
Arabidopsis thaliana; hypocotyl length; Col-0; 100 µg/mL, 7 days, seed germination, dark: 44.6%
Arabidopsis thaliana; root length; Col-0, seedlings; 3.125 µg/mL: 7.57%
Glycine max; fresh weight; soil surface spray, 150 g ai/ha, 21 days, pre-emergence crop safety: 4.1% and 3.7% and 4.2%
Arabidopsis thaliana; hypocotyl length; Col-0; 12.5 µg/mL, 7 days, seed germination, dark: 18.4%
Arabidopsis thaliana; root length; Col-0, seedlings; 25 µg/mL: 29.5%
Arabidopsis thaliana; hypocotyl length; Col-0, seedlings; 12.5 µg/mL: 18.4%
Arabidopsis thaliana; root length; Col-0, seedlings; 6.25 µg/mL; baseline: water control: 11.9%
Arabidopsis thaliana; root length; Col-0, seedlings; 25 µg/mL; baseline: water control: 29.5%
Arabidopsis thaliana; hypocotyl length; Col-0, seedlings; 100 µg/mL: 44.6%
Amaranthus retroflexus; fresh weight; 150 g ai/ha, post-emergence treatment: 44.4% and 44.1% and 41.9%
Arabidopsis thaliana; root length; Col-0, seedlings; 50 µg/mL; baseline: water control: 36.5%

Sample 2
Target: Membrane-associated tyrosine- and threonine-specific cdc2-inhibitory kinase (PKMYT1, Homo sapiens, UniProt Q99640)
Read-out: binding
Technique: HTRF
Concentration: 111.11 nM
Measurement: inhibition
Target sequence (Q99640 1-499): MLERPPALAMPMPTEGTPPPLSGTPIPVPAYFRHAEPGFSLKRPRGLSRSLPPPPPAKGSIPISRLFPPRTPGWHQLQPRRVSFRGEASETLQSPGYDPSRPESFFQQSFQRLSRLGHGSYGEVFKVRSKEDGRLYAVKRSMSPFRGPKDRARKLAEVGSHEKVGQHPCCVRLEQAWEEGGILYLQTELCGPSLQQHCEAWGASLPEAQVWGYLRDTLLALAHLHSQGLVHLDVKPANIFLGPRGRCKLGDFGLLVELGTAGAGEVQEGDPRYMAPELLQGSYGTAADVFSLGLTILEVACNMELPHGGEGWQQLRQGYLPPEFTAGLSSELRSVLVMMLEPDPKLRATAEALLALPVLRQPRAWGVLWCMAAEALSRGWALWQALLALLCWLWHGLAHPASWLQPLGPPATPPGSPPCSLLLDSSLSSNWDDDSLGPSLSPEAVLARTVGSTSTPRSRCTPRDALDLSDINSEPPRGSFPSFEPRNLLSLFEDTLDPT
Cc1ccc(O)c(C)c1-c1cnc2[nH]c(-c3cnc(N4CCC(CN5CCN(c6c(F)cc(NC7CCC(=O)NC7=O)cc6F)CC5)CC4)nc3)cc2c1C#N (racemic): 84.3% and 83.6%
Cc1ccc(O)c(C)c1-c1cnc2[nH]c(-c3cnc(N4CCC(CCN5CCN(c6cc7c(cc6F)c(N6CCC(=O)NC6=O)nn7C)CC5)CC4)nc3)cc2c1C#N: 100% and 99.3%
Cc1ccc(O)c(C)c1-c1cnc2[nH]c(-c3cnc(N4CCC5(CC4)CC(N4CCN(c6cc7c(cc6F)c(N6CCC(=O)NC6=O)nn7C)CC4)CO5)nc3)cc2c1C#N (racemic): 99.1% and 97.3%
Cc1ncc(-c2cc3c(N)c(-c4c(C)ccc(O)c4C)cnc3[nH]2)cn1: 67.1% and 66.4%
Cc1ccc(O)c(C)c1-c1cnc2[nH]c(-c3cnc(N4CCC(CN5CCN(c6ccc(NC7CCC(=O)NC7=O)c(F)c6)CC5)CC4)nc3)cc2c1C#N (racemic): 99.1% and 99.7%
Cc1ccc(O)c(C)c1-c1cnc2[nH]c(-c3cnc(N4CCC(CCN5CCN(c6ccc(N7CCC(=O)NC7=O)cc6F)CC5)CC4)nc3)cc2c1C#N: 99.4% and 99.1%

Sample 3
SMILES: C[C@@H]1CN(c2ccc(-c3cc(C(=O)NCCOCCOCCOCCOCCNC(=O)/C=C/c4[nH]cc(C(=O)N[C@@H](CC(N)=O)c5ccc(F)c(Cl)c5)c4-c4ccc(Cl)cc4F)ccc3F)cc2NC(=O)c2c[nH]c(=O)cc2C(F)(F)F)C[C@H](C)N1C
Read-out: thermal unfolding
Technique: differential scanning fluorimetry
Concentration: 5.5 µM
Reading: higher = more unfolded
Measurement: SYPRO Orange fluorescence
DCAF1: DDB1- and CUL4-associated factor 1 (DCAF1, Homo sapiens, UniProt Q9Y4B6)
Sequence of UniProt Q9Y4B6 (whole entry, looked up): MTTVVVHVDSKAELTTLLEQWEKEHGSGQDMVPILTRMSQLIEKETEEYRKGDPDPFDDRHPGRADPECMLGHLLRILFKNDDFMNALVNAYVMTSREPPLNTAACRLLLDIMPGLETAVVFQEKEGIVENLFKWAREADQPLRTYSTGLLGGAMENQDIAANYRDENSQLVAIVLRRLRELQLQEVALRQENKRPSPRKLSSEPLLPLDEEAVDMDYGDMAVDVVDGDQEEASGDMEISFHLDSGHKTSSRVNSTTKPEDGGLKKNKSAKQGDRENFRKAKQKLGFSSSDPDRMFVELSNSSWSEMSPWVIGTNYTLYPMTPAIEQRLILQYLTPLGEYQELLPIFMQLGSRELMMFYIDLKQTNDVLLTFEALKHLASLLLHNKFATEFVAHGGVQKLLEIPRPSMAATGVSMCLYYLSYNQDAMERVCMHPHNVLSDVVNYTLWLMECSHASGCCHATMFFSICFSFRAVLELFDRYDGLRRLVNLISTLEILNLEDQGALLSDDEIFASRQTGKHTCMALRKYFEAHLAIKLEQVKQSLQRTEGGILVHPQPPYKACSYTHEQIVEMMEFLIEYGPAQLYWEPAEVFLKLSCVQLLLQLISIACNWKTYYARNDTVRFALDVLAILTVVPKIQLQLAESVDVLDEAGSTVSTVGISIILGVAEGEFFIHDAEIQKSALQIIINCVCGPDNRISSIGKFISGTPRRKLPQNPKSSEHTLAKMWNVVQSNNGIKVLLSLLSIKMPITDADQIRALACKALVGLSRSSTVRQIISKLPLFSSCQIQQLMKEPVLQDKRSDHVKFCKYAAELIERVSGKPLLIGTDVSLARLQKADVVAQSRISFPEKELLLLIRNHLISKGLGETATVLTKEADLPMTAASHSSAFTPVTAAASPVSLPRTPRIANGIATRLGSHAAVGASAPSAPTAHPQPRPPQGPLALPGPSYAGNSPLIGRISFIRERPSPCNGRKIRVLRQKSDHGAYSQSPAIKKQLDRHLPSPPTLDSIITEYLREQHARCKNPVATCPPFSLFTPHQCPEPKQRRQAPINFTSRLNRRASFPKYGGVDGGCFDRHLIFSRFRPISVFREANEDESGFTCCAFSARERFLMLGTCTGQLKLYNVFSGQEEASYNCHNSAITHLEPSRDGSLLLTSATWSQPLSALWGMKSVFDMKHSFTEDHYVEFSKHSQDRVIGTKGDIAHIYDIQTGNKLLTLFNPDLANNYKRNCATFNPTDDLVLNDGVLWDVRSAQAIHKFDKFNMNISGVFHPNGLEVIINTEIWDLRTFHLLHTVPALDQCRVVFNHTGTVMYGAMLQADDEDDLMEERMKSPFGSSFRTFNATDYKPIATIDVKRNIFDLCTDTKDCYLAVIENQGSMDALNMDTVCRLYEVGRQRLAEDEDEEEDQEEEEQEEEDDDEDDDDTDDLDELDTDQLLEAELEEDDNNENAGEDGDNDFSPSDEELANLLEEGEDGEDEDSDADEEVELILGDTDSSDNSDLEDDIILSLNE
WDR5: WD repeat-containing protein 5 (WDR5, Homo sapiens, UniProt P61964)
DCAF1; 34.2 °C: 9970 a.u.
DCAF1; 55.61 °C: 22900 a.u.
DCAF1; 61.61 °C: 48400 a.u.
DCAF1; 60.01 °C: 40700 a.u.
DCAF1; 60.81 °C: 44600 a.u.
WDR5; 62.61 °C: 14600 a.u.
DCAF1; 64.01 °C: 56800 a.u.
DCAF1; 32.6 °C: 9760 a.u.
DCAF1; 66.01 °C: 59400 a.u.
DCAF1; 34.4 °C: 10000 a.u.
WDR5; 32.2 °C: 12700 a.u.

Further values, each from its own experiment
Target: Sodium-dependent neutral amino acid transporter B(0)AT1 (SLC6A19, Homo sapiens, UniProt Q695T7)
Sequence of UniProt Q695T7 (whole entry, looked up): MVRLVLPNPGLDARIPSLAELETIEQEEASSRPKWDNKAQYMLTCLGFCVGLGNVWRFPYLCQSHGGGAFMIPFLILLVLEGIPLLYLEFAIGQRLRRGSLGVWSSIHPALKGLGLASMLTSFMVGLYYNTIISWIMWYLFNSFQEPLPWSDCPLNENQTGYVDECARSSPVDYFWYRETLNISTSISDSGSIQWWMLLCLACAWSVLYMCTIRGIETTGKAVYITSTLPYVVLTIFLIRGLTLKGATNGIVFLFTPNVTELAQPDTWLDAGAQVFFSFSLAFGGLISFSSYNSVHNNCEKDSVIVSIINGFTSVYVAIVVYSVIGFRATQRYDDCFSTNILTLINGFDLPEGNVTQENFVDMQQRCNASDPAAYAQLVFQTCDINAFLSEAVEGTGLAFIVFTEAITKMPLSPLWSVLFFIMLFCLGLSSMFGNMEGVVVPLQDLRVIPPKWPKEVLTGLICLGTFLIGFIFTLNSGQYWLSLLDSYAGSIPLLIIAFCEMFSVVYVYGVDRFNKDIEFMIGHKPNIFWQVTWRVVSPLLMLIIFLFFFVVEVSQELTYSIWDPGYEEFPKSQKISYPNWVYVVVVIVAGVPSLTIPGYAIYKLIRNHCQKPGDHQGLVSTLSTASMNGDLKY
Cc1cc(OCC(=O)NC(C)C)cc(C)c1Br  normalised transport activity (inhibitor, FLIPR membrane potential; CHO-BC cells; 30 µM): 0.233
CC(C)NC(=O)COc1ccc(Br)cc1  remaining activity (FLIPR membrane potential; CHO-BC; concentration not given; baseline: 100 µM cinromide set to 0): 15.6%
Cc1cc(OCC(=O)NC(C)C)ccc1Cl  normalised transport activity (inhibitor, FLIPR membrane potential; CHO-BC cells; 30 µM): 0.2
CCNC(=O)COc1cc(C)c(Cl)c(C)c1  IC50 (inhibitor, L-[14C]leucine uptake; CHO-BC cells; first repeat): 580 nM

Excerpt of the above (sample 2):
Cc1ncc(-c2cc3c(N)c(-c4c(C)ccc(O)c4C)cnc3[nH]2)cn1: 67.1% and 66.4%
Cc1ccc(O)c(C)c1-c1cnc2[nH]c(-c3cnc(N4CCC(CN5CCN(c6c(F)cc(NC7CCC(=O)NC7=O)cc6F)CC5)CC4)nc3)cc2c1C#N (racemic): 84.3% and 83.6%
Cc1ccc(O)c(C)c1-c1cnc2[nH]c(-c3cnc(N4CCC(CN5CCN(c6ccc(NC7CCC(=O)NC7=O)c(F)c6)CC5)CC4)nc3)cc2c1C#N (racemic): 99.1% and 99.7%
